# Assay results collected from several papers.
# Each line is one published result; not all experiments were run side by side.
# Organism: Acinetobacter baumannii
Compound,assay,test system,conditions,MIC
CNC(C)C1CCC(N)C(OC2C(N)CC(N)C(OC3OCC(C)(O)C(NC)C3O)C2O)O1 (stereo not shown),broth microdilution,BNCC 194496,,4 µg/mL
Oc1c(Br)cc(Br)c2nc3ccccc3nc12,,1794,,> 100 µM
C[C@@H](O)[C@H]1C(=O)N2C(C(=O)O)=C(S[C@@H]3CN[C@H](C(=O)N(C)C)C3)[C@H](C)[C@H]12,,Kelly lung isolate,,4 µg/mL
CC(C)C[C@@H]1NC(=O)[C@@H](Cc2ccccc2)NC(=O)[C@H](CCN)NC(=O)[C@@H](NC(=O)[C@H](CCN)NC(=O)[C@@H](N)[C@@H](C)O)CCNC(=O)[C@H]([C@@H](C)O)NC(=O)[C@H](CCN)NC(=O)[C@H](CCN)NC1=O,,ATCC 17978,"in combination, checkerboard, added: rifampicin",3.13 µg/mL
Cc1c(CN(C)C(=O)/C=C/c2cnc3c(c2)CCC(=O)N3)oc2ccccc12,broth microdilution,KB304,,> 32 µg/mL
C[C@@H](O)[C@H]1C(=O)N2C(C(=O)O)=C(S[C@@H]3CN[C@H](C(=O)N(C)C)C3)[C@H](C)[C@H]12,broth microdilution,A1 clinical isolate,20 h,< 0.5 µg/mL
Cc1c(CN(C)C(=O)/C=C/c2cnc3c(c2)CC(NC(=O)OC(C)(C)C)C(=O)N3)oc2ccccc12 (stereo not shown),broth microdilution,AR-0313,,> 32 µg/mL
CC1(C)S[C@@H]2[C@H](/N=C/N3CCCCCC3)C(=O)N2[C@H]1C(=O)O,broth microdilution,ATCC 17978,,2.5 µM
Cc1cc(NS(=O)(=O)c2ccc(N)cc2)no1,broth microdilution,NCTC 13424,"20 h, 5% CO2",> 512 µg/mL
CC[C@H](C)CCCCC(=O)N[C@@H](CCN)C(=O)N[C@H](C(=O)N[C@@H](CCN)C(=O)N[C@H]1CCNC(=O)[C@H]([C@@H](C)O)NC(=O)[C@H](CCN)NC(=O)[C@H](CCN)NC(=O)[C@H](CC(C)C)NC(=O)[C@@H](CC(C)C)NC(=O)[C@H](CCN)NC1=O)[C@@H](C)O,broth microdilution,"ATCC 17978, cation-adjusted Mueller-Hinton broth","18 to 20 h, 37 °C, 0.002% polysorbate 80",0.25 µg/mL
CC[C@H]1OC(=O)[C@H](C)[C@@H](O[C@H]2C[C@@](C)(OC)[C@@H](O)[C@H](C)O2)[C@H](C)[C@@H](O[C@@H]2O[C@H](C)C[C@H](N(C)C)[C@H]2O)[C@](C)(OC)C[C@@H](C)C(=O)[C@H](C)[C@@H](O)[C@]1(C)O,broth microdilution,ATCC 17978,,10 µM
CC[C@H](C)CCCCC(=O)N[C@@H](CCN)C(=O)N[C@H](C(=O)N[C@@H](CCN)C(=O)N[C@H]1CCNC(=O)[C@H]([C@@H](C)O)NC(=O)[C@H](CCN)NC(=O)[C@H](CCN)NC(=O)[C@H](CC(C)C)NC(=O)[C@@H](Cc2ccccc2)NC(=O)[C@H](CCN)NC1=O)[C@@H](C)O,,"ATCC 17978, CAMHB","20 h, 37 °C",0.5 µg/mL
CO/N=C(\C(=O)N[C@@H]1C(=O)N2C(C(=O)O)=C(COC(C)=O)CS[C@H]12)c1csc(N)n1,broth microdilution,NCTC 13424,"20 h, 5% CO2",512 µg/mL
FC(F)(F)Oc1ccc(OCCn2c(CNCC34CC5CC(CC(C5)C3)C4)nc3ccccc32)cc1,,ATCC 17961,,> 128 µg/mL
CC1(C)S[C@@H]2[C@H](NC(=O)[C@H](N)c3ccccc3)C(=O)N2[C@H]1C(=O)O,broth microdilution,"ATCC 19606, susceptible","18 h, 37 °C, LED light 10 min, 1.57 mW",> 128 µM
COc1ccc2ccc(O)c(/C=N/[C@H]3CCCC[C@H]3/N=C/c3c(O)cccc3F)c2c1,"bacterial growth, broth microdilution",carbapenem-resistant clinical isolate,,> 40 µM

# For quick reference, copied from above:
Compound,assay,test system,conditions,MIC
Oc1c(Br)cc(Br)c2nc3ccccc3nc12,,1794,,> 100 µM
C[C@@H](O)[C@H]1C(=O)N2C(C(=O)O)=C(S[C@@H]3CN[C@H](C(=O)N(C)C)C3)[C@H](C)[C@H]12,,Kelly lung isolate,,4 µg/mL
